Published values gathered from unrelated publications.
Every numbered part comes from another study and shows a few of its results, in no order. Positions count from the first letter of the parent shown.

Series 1
Target: Ras GTPase-activating protein-binding protein 1, full length (G3BP1, Homo sapiens, UniProt Q13283)
UniProt Q13283, sequence (whole entry, looked up): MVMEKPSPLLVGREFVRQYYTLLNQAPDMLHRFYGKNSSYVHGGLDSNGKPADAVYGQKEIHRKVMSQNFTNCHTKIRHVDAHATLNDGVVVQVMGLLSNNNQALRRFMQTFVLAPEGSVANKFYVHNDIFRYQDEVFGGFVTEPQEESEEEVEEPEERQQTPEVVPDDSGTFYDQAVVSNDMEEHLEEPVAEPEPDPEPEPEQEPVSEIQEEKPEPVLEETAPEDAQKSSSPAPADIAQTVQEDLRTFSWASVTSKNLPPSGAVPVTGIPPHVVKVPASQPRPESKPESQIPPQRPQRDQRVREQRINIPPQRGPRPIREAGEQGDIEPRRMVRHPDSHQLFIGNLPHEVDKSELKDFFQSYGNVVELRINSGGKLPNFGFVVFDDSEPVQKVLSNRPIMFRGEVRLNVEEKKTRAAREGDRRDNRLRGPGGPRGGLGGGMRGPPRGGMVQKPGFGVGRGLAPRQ
Technique: RNA Bind-n-Seq
Molecule type: RNA
Matrix: in vitro
Tested at: 200 nM
Notes: whole 134-nt RNA, ends assumed
Together with: 150 mM LiCl
Baseline: input library
Reading: higher = stronger binding
Quantity: log2 enrichment
All molecules: 7-deaza-guanosine replaces G
Shared flanks, not repeated: GGGAGUUCUACAGUCCGACGAUC … UGGAAUUCUCGGGUGUCAAGG
UGGCCCUGGUGGCAUGCGGGGAGGUAGAGGUGGCCUCAUGGAUCGUGGUGGUCCCGGUGGAAUGUUCAGAGGUGGCCGUGGUGGAGACAG: 0.357
UGGGAGGUGGAUUUUGUUUAUUUUUUUAGCUCAUUUCCAGGGGUGGGAAUUUGUUUUUAAUAUGUGUCAUGAAUAAAGUUGUUUUUGAAA: -0.618
CUCAGACAACACGCACCCACACAGACACAGAGGGAAGGGGUUGGGAUGGGGACAGGGUGCACAGCAGGGCGGGGUAGGACCCCAGCCCCU: -0.982
AGUCCUGUGCUACACAUCGUAUGUACCGAAUCGGAAAAAAAGGUUUUUGGAAAAAGGAAAGUAUUAUGUUACGCCGUUCGGAUCUGCACU: -2.4
CACAGACAACACGCACCCACACAGACACAGAGGGAAGGGGUUGGGAUGGGGACAGGGUGCACGGCAGGGCGGGGUAGGACCCCAGCCCCU: -0.293
GUCCUGUGCUACACAUCGUAUGUACCGAAUCGGGGCCCCCGGGCCCCCGGCCCCCGGGAAAGUAUUAUGUUACGCCGUUCGGAUCUGCAC: -1.71
UGCCUCUGCGGCUAGCUGAUUUUGGGGUACUUCAUAGGAACGAGCUGUCUGGAGCACUCACAGGACUCACCCGGGUACGAAGAUUCCAAC: -2.37
UCCUGUGCUACACAUCGUAUGUACCGAAUCGGAAAAAAGGGGAAAAAAGGAAAAAAGGGGAAAGUAUUAUGUUACGCCGUUCGGAUCUGC: -0.358
UCCUGUGCUACACAUCGUAUGUACCGAAUCGGGCCCCCCGGCCCCCCGGGCCCCCCGGGAAAGUAUUAUGUUACGCCGUUCGGAUCUGCA: -0.284
CUCAAGUCCUGUGCUACACAUCGUAUGUACCGAAUCGGGGAGGGGAGGGGAGGAAAGUAUUAUGUUACGCCGUUCGGAUCUGCACUUCCA: 0.114
ACCAUGCAGGUGGGCAUCUUUGGGAAGUGGGGCAAGGGGGGGAUAGGGAGGGGGGUAACACUUUGGGAACAGGUGGUCCCAGGUCCUUUC: -0.292

Series 2
Target: ABI1, truncated, D143A, DHFR fusion (Arabidopsis thaliana)
Technique: DHFR PCA, deep sequencing
Matrix: yeast
Notes: methotrexate growth selection, single substitutions
Together with: (+)-ABA 0 µM
Baseline: wild-type fitted maximum
Reading: higher = stronger binding
Quantity: relative binding score
Parent: PYL1, truncated, DHFR fusion (Arabidopsis thaliana); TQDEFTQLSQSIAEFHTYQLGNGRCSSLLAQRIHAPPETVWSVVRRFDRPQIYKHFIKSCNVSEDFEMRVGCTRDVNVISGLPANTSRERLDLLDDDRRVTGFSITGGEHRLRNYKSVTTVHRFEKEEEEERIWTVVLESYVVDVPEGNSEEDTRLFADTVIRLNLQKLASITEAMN; partner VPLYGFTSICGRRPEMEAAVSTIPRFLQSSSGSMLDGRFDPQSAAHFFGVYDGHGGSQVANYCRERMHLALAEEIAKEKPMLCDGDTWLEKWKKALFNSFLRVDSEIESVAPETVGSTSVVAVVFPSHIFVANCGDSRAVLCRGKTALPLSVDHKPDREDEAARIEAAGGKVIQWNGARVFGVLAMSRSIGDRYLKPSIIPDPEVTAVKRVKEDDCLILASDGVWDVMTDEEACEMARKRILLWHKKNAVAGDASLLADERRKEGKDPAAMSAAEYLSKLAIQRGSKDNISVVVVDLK
T160F: 51.6%
V78R: 37.3%
S27H: 0.113%
Q19L: 0.197%
T119W: -2.67%
E151L: 17.6%
I52R: 8.96%
L93P: 6.03%
G102S: 0.236%
K54G: -0.74%
C72N: 5.64%
D144C: -13.7%
N77M: 34%
N149R: 13.5%
E127F: 14.3%
L166C: -0.921%

Series 3
Target: Sal-like protein 4, full length isoform A (SALL4, Homo sapiens, UniProt Q9UJQ4, residues 1-1053)
UniProt Q9UJQ4, sequence (whole entry, looked up): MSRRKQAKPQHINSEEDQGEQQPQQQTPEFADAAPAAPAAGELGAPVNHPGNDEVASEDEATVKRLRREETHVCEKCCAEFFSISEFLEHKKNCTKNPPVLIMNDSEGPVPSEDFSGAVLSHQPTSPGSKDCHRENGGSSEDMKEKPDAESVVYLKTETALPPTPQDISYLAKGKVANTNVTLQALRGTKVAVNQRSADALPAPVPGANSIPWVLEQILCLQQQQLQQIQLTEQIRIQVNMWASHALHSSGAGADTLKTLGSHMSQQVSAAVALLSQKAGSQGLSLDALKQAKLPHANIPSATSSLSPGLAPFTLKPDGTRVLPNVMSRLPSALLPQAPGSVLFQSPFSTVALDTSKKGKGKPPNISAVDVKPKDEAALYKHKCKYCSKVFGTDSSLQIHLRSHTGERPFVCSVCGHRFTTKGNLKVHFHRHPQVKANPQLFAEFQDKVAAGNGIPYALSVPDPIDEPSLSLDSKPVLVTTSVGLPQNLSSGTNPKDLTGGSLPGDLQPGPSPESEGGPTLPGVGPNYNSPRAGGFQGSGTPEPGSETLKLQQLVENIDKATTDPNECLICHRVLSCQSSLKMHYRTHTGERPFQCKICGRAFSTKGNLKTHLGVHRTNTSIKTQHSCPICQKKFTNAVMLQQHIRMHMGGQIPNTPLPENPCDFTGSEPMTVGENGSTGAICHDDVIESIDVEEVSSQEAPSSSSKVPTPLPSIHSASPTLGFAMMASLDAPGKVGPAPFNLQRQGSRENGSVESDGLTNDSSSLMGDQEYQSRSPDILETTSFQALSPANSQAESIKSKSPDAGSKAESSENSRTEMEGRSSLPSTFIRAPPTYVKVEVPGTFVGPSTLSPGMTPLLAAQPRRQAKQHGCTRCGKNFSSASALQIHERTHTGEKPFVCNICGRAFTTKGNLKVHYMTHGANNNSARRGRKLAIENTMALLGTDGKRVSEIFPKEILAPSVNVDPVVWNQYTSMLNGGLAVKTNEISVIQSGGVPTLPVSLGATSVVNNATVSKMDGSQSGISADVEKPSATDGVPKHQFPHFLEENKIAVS
Technique: universal PBM
Molecule type: double-stranded DNA, one strand shown
Matrix: in vitro
Tested at: 600 nM
Notes: 8-mer, flanks averaged, mean of replicates
Reading: higher = stronger binding
Quantity: E-score
ATGCCAGG: -0.275
GGCCTGAA: -0.262
CCAGGTGC: -0.259
ATCCTTTA: 0.157
CAGTACGG: 0.00274
ATTACCCC: 0.0284
CCTAGGAC: -0.168
AAAAAAGT: 0.236
CCTATTGA: 0.217
TGACACCA: -0.113
AGTTCCAT: 0.0982
ACAGCCAA: -0.029
GAGGTTAA: 0.139
GCGGTAGC: -0.187
CCATCCTA: -0.0173
AATACAAA: 0.35
GCGCTGAC: -0.259
CACCCGCC: -0.2
TTCCGAAA: 0.224
CGACTCCC: -0.109
AATACTTA: 0.3
CGATTGTC: -0.0021
CACCAACC: -0.258
CACAGCAC: -0.216
AAATTAAA: 0.345

Series 4
Target: CCNA1, cyclin fold, Cln2 fusion (human)
Technique: yeast growth competition, sequencing
Matrix: yeast
Notes: weak parent motif
Baseline: not given
Reading: higher = stronger binding
Quantity: normalised enrichment score
Parent: BRCA2 docking peptide (human); PSIKRNLLNEFDR
PSFKRNLLNEFDR [I3F]: 0.239
PSIKRNLDNEFDR [L8D]: -0.0544
PSITRNLLNEFDR [K4T]: 0.136
PSIKRNHLNEFDR [L7H]: 0.173
PSIKRNLLNCFDR [E10C]: 0.16
PIIKRNLLNEFDR [S2I]: 0.198
PSIRRNLLNEFDR [K4R]: 0.431
PSIFRNLLNEFDR [K4F]: 0.153
PSIKRNLLNKFDR [E10K]: -0.136
PSIKRNLLFEFDR [N9F]: 0.11
PSIKRNLLVEFDR [N9V]: 0.242
PSIKRNLLNWFDR [E10W]: 0.487
PSIKRNLLNEFHR [D12H]: 0.198
PSIQRNLLNEFDR [K4Q]: -0.091
PSCKRNLLNEFDR [I3C]: 1.08
PSIKRNILNEFDR [L7I]: 0.833
DSIKRNLLNEFDR [P1D]: 0.439
PSIKRNLCNEFDR [L8C]: 0.316
PSIKTNLLNEFDR [R5T]: 0.0478
PSIKRNLLNEFGR [D12G]: 0.395
PSIGRNLLNEFDR [K4G]: -0.0973
PSIKRNLLQEFDR [N9Q]: 0.548
PSIKRNLLNIFDR [E10I]: 0.0975
PSSKRNLLNEFDR [I3S]: 0.535
PSIKRNLLNMFDR [E10M]: 0.0576

Repeated from above (series 4):
PSIKRNLLQEFDR [N9Q]: 0.548
PSIKRNLLNEFHR [D12H]: 0.198
PSIKRNLLNIFDR [E10I]: 0.0975
PSIQRNLLNEFDR [K4Q]: -0.091
PSIKRNLDNEFDR [L8D]: -0.0544
PSIKRNILNEFDR [L7I]: 0.833
